Published values pooled from the literature.
Numbered parts are unrelated; each lists some results of a single study. Positions count from the first letter of the parent shown.

Study 1 — method: RNA Bind-n-Seq; molecule type: RNA; medium: in vitro; concentration: 100 nM; relative to: input RNA pool; direction: higher = stronger binding
Target: RING finger protein unkempt homolog, zinc fingers 1-6, SBP tag (UNK, Homo sapiens, UniProt Q9C0B0, residues 30-357)
UniProt Q9C0B0, sequence (30-357, looked up): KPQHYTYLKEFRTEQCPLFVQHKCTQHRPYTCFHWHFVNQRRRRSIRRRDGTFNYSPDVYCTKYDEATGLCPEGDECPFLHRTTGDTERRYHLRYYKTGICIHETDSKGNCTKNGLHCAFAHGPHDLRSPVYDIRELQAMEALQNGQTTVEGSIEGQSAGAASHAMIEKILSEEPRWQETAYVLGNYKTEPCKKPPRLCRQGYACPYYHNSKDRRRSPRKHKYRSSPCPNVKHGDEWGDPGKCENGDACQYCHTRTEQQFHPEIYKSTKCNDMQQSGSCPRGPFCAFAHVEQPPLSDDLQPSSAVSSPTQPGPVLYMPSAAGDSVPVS
Notes: RNA with constant flanks, vertebrate orthologous sites, ends assumed
Oligonucleotide	bound/input enrichment
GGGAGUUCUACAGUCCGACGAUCCUCUAUGUAGAAAACAAUUUUCACUGAAGCCAUUGUCAAGUUUUUCCCCCUAGAUUUUCAUUUGGAGCUCUUUAAUUUUAUACAAGCUUGCUGUGUUGGUCAUCAUUAGCCCAGAGGUAACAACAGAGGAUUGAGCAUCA	0.964 ratio
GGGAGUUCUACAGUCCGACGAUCAUUCAAACCUGUGGUACCAUGGCCUCAUGUUGAAGGAGUAGAAGUGGACUUAGAGUCUAUUAGAAGAAAAAACAAGGCGAAAAAUGAACAAGAGCGCCAUGCUGGAGGAGAUAAGCAGAACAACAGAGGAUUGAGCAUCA	0.763 ratio
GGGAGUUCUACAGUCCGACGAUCCUCUAUGGGCCUCGCAGAGUUGAAAUAAUGGAAGAGGAAAGUGAACAGUAGUAUUCAUUUUAGUAUUUAUGCAUAGGUGUGAAAUAAAUGUUAUUCGUUGAUCAUUUCUACAAUCUAGAGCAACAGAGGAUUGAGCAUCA	1.33 ratio
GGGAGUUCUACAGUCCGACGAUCAAAUGGCUUCUGUUCUAGUAAGAAAAGUAAAUAUUGUCCUCUAAAUAUAAAACUCCUAAAUGGCUAUUUUUGAAAUUGAAAUAUUUGAAUAUCGUAAAUCAGCUGUUGCCACUUCACAACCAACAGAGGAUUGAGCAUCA	0.551 ratio
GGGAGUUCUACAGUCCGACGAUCUUACAGUCAUUGAUGGACUCUAUUUUUUUAUUAUUACUUGGACCUUGGUCGUUUUUAUACUAGCAAAAUGUCUUGUUUUAAUUUGUGUUUUUUUCGGGGGGAGGGAGUAAACUUGCUGAUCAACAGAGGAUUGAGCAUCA	2.62 ratio
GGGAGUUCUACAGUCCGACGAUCGUUGUGAUCCCUUUAACAUCCACAGAAAACUAUCAAAGAAAAACUUGCGAGCAAUUGACUUAGACGAUGCAGCUUUUCUAAGUGCCAAGUUUGGAAGGCAGUUUGUUCCUGGUUGGAAGCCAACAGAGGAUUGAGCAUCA	0.597 ratio
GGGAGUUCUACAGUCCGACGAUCAAUUUUCUUAUUAUAGGUAUCAUUGCCCAAUGCCCAAGAUAUUUUAUGUUCAGCUGACUGUAGGAAAUAAUGAGUUUUUUGGGGAAGGGAAGACCCGACAAGCUGCUAGACACAAUGCUGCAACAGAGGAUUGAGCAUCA	1.51 ratio
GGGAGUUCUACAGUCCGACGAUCCCGAAAGGCCAAAUUCCCUCCUCCCUUCUACUGCUUCUACCAACUGGAAGCACAGAAAACUAGAAUUUCAUUUAUUUUGUUUUUAAAAUAUAUAUGUUGAUUUCUUGUAACAUCCAAUAGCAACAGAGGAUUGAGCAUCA	0.655 ratio
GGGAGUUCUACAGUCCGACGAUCUGGGUUACUCCUAUUAUUAUCAAGUAGCUGGAAUUGUGAAGGUCGGAGUAGUUAGAUCUUUAGCUUUGAUUCCUUAUUUUUUUUUUUGUAUUACUAUCCAUGUGUAUAAAUUAUUGAUCACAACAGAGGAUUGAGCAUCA	1.94 ratio
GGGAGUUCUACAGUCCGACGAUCCCCCGUUUUUAAAUGCUCUUUUGAUGCUUCCGGCAGCGCCAUUUGUACAGUUUUUCUCUAAAAACAAAAAUGUUGAUUCGAAUUUCUUGUAUUUAAGUUUAAAUUGUUACAACAUUUUAGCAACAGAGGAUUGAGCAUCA	0.359 ratio
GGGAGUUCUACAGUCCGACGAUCAAUAGUUUUAAGCUUGUUUGCACAGCUUUUAUUUUCCAUUGGAAAUGGAAUCCAUUGCCUUAGGUCUUUUUAAAUAGUGUAUUGUUAUCGUUGGGCUGGCUCUACGCUUGAAAUCCAGUUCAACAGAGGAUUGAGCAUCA	1.84 ratio

Study 2 — method: protein-binding microarray; molecule type: double-stranded DNA, one strand shown; medium: in vitro; concentration: not given; direction: higher = stronger binding
Target: Transcriptional repressor CTCF (CTCF, Homo sapiens, UniProt P49711, residues 1-727, full length assumed)
UniProt P49711, sequence (whole entry, looked up): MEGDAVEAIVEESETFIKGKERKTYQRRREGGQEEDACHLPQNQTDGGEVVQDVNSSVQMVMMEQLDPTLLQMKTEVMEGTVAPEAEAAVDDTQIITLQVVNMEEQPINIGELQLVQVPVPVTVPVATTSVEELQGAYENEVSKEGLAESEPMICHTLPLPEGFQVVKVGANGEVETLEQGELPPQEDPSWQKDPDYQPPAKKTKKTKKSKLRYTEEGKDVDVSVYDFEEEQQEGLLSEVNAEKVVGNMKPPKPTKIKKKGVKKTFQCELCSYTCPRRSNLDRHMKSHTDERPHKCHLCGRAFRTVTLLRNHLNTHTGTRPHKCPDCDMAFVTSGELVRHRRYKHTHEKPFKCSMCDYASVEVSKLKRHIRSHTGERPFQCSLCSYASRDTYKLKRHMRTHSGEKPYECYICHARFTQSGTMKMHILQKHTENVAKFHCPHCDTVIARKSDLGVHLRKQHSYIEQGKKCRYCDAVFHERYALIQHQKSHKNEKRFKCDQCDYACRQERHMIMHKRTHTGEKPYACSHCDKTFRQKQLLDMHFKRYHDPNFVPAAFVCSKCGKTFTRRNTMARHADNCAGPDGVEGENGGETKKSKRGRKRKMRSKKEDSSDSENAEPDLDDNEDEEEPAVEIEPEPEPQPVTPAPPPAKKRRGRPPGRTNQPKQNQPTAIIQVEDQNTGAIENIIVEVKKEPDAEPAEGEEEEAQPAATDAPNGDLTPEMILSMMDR
Notes: k-mer, scored over probes, only values ≥0.25
Oligonucleotide	E-score
AATATGGT	0.252
ATGGTGAA	0.277
ATGATAAC	0.275
ATCTTGCA	0.263
ACCCGCGC	0.32
AACAAAAT	0.314
GTGTTATA	0.333
GTCGCGAC	0.265
AAATAAAC	0.305
ACGTTTAA	0.281

Study 3 — target: CCND1, cyclin fold, Cln2 fusion (human); method: yeast growth competition, sequencing; medium: yeast; notes: weak parent motif; relative to: not given; direction: higher = stronger binding
Parent: WEE1 docking peptide (human); HKTFRKLRLFDTP; partner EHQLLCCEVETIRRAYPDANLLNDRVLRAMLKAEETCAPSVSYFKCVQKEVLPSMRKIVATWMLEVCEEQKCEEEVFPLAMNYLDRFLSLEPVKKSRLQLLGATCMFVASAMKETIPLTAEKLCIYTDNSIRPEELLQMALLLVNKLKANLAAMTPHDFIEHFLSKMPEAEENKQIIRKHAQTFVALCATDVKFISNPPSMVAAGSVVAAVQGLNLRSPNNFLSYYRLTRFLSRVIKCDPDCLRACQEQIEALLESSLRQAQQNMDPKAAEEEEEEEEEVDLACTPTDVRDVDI
Change	normalised enrichment score
D11H	-0.719
R5Q	0.0893
K2C	0.106
R8P	-0.321
R8F	-0.06
P13M	0.876
F10D	-0.973
R5C	-0.3
R8H	0.279
T12F	0.0126
T12V	0.229
R5H	0.934
K6Y	0.692
H1Y	0.223
F4A	0.297
L9H	-0.68
T12N	0.837
K6I	0.388
F4R	0.267

Study 4 — target: NFE2L2, bZIP domain (human); method: DHFR protein complementation; medium: yeast; relative to: wild-type JUN-FOS pair; direction: higher = stronger binding
Notes: single substitutions, most at no-binding floor
Parent: JUN, bZIP domain (human); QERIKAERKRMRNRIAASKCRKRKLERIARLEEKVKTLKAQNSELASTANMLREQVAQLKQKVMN; partner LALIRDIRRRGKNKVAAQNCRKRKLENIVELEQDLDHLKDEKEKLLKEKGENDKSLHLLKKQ
Change	binding fitness
N42I	-1.54 natural log
L38K	-1.44 natural log
E44L	-1.44 natural log
L38P	-1.49 natural log
S47C	-1.41 natural log
K34V	-1.34 natural log
L52Y	-1.56 natural log
E54R	-1.36 natural log
E54S	-1.5 natural log
E44C	-1.44 natural log
L45E	-1.52 natural log
V56L	-1.41 natural log
E32V	-1.49 natural log
T37I	-1.33 natural log
E54H	-1.46 natural log
A57P	-1.55 natural log
A29C	-1.43 natural log
E44Q	-1.47 natural log
L45G	-1.57 natural log
N42G	-1.4 natural log
M51P	-1.5 natural log
E33D	-1.27 natural log
Q55L	-1.55 natural log
L52A	-1.52 natural log
L31D	-1.42 natural log

Study 5 — method: DHFR PCA, deep sequencing; medium: yeast; together with: (+)-ABA 0.11 µM; relative to: wild-type fitted maximum; direction: higher = stronger binding
Target: ABI1, truncated, D143A, DHFR fusion (Arabidopsis thaliana)
Notes: methotrexate growth selection, single substitutions
Parent: PYL1, truncated, DHFR fusion (Arabidopsis thaliana); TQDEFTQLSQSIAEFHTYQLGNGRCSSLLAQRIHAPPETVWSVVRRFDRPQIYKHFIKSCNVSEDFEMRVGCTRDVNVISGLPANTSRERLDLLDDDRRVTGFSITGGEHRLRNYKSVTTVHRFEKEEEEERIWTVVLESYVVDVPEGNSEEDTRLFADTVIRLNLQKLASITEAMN
Change	relative binding score [%]
P83W	8.31
L164Q	12.5
H110S	48.5
K116L	-8.53
R90E	2.7
K126G	59.7
E4A	18.4
L93G	-5.26
R24K	51.2
V44K	-0.41
R132Q	52.7
V137R	-2.15
E127G	44.6
E67C	14.8
L156V	15.9
N22A	46.9
D144A	-1.44
D159R	-6.49
V43E	-1.59

Excerpt of the above (study 5):
Change	relative binding score [%]
E67C	14.8
V44K	-0.41
L164Q	12.5
P83W	8.31
E127G	44.6
L156V	15.9
K116L	-8.53
V43E	-1.59
R132Q	52.7
D159R	-6.49
R90E	2.7
